# Measured values collected from several papers.
# Each numbered part is a random draw from the data of one study; scales do not carry over between parts. Changes are numbered by the printed parent chain.

# Set 1 — technique: protein binding microarray; molecule type: double-stranded DNA, one strand shown; matrix: in vitro; tested at: not given; reference: not given; reading: higher = stronger binding
# Target: Histone acetyltransferase KAT6A, both winged helices, GST fusion (KAT6A, Homo sapiens, UniProt Q92794, residues 1-181)
# Notes: 8-mer, flanks averaged, mean of 2 arrays, mostly near background
# Residues (chain): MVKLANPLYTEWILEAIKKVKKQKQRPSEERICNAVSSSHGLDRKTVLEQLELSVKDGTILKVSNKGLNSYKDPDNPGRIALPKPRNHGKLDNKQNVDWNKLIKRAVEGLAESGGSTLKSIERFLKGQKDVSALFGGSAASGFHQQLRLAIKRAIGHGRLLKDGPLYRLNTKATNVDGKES
Strand,E-score
CGCCCTCA,-0.0873
ACGATTTG,-0.0906
AGTCCTCA,-0.163
ATTGCTTC,-0.00724
AGCCGGTG,0.141
CGGGTACG,0.232
AAGAGTGA,-0.235
ATATTCTG,-0.0879
AGACCTTA,-0.0872
CGAAGGTA,-0.103
CCACTTTA,-0.191
CCGTATCG,0.261
ATTAAATG,-0.152
AAAGATGT,-0.116
ATGTTCTC,-0.00881
ACGAATCG,0.162
ACCACGAT,-0.243
CCTTTTGA,-0.12
CATGCCTC,0.141
ACCAGCCC,-0.1
ACAATAAT,-0.0164
CCGACCGC,0.244
CGAACCGA,0.149
GGCTATAC,0.165
AGTCTTCC,-0.0182

# Set 2 — technique: RNA Bind-n-Seq; molecule type: RNA; matrix: in vitro; tested at: not given; reference: input RNA pool; reading: higher = stronger binding
# Target: RING finger protein unkempt homolog, zinc fingers 1-6, GST-SBP tag (UNK, Homo sapiens, UniProt Q9C0B0, residues 30-357)
# Notes: RNA with constant flanks, human and mouse sites, ends assumed
# Construct (chain): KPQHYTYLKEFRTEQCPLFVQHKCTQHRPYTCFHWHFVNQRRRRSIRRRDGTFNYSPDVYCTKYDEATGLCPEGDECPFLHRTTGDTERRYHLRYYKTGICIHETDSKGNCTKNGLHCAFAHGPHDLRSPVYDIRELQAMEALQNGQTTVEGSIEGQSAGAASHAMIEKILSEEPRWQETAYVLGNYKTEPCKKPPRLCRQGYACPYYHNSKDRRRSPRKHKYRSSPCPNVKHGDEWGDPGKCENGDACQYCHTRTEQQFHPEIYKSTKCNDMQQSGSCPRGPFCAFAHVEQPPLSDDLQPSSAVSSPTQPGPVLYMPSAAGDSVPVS
Strand,bound/input enrichment [ratio]
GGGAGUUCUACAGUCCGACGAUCACGAAGAGCGCGCGGGUCAAAGGCCUUAGUUUUCAUCCUAAAAGACCCUGGAUCCUGACCAGUUUACACAAUGGGGUCAUCCAGUUAUGGGACUAUCGGAUGUGCACCCUAAUUGACAAACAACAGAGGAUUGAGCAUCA,0.273
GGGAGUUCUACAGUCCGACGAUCCAGCUGAUCCGAAGGGAGUUUCAGACCAGUGUAAUCAGCAGAGACAUUGAUACUGCUGCCAAAUUCAUUGGUGCAGGUGCUGCAACAGUAGGAGUUGCUGGUUCUGGUGCUGGUAUUGGACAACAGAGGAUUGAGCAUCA,0.13
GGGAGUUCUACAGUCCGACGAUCGCUUACAAAAUCAAAUACCCGGAGAACUUCUUUCUUCUAAGAGGAAACCAUGAGUGUGCUAGCAUCAAUCGCAUUUAUGGAUUCUACGAUGAGUGUAAACGAAGAUUUAAUAUUAAAUUGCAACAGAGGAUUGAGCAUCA,0.249
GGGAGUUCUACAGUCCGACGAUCGAUAACAUUGGCAAAGACGAAUCAAAGGUGGAACAUUCAACCCACAGCAGAAAUGAACUGAUUUCAAAAGAGGAACAGAGUAGUCCAUCUUUGCUAGAAGAAAACAAAGUCCAUACAGAUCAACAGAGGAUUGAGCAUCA,0.098
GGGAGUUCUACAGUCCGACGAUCACGCAUGGAAUCUUCUCUGGCCCUGCCAUUUCUCGCAUCAACAAUGCAUGCUUUGAAGCAGUAGUAGUUACCAAUACCAUACCUCAGGAAGACAAGAUGAAACACUGCUCCAAAAUACAGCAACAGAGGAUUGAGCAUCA,0.224
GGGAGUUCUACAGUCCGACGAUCCUACUACUUUGGGCUCAGAACGAGCUGGACCAGAAGAAAGUAAAAUAUCCCAAAAUGACAGACCUCAGCAAGGGUGUGAUUGAGGAGCCCAAGUAGCGCCUGCGCUUGCGUGGUGGAUCCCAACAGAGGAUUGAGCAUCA,0.0972
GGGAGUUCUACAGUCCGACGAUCUUUACUGUCACCCUCAUCAGCAAAGACAGGCUAUGCCUCUCGAAUGAAGAACAAAUUAUCAUCCAUGACUUCAUCCUUGAAGCUACACAGGAUGACUACGUACUAGAGGUUCGGCACUUUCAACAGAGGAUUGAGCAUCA,0.121
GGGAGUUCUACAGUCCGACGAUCCCGGUGGAGGGCAGCGAGAUAGGCUCAGAGACGCUGUCCGUGUCCUCCUCACGCGACUCCACCCUGCGCAGGAAGGGCAACAUCAUCUUGAUCCCGGAAAGAAGCAACAGCCCUGAAAACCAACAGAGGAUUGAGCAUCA,0.0806
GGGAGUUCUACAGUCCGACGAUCAGCAAAGACGCAAAGGUUCCUUCUCCCCCUCCUGGACAUAAAUGGAAGGAAGUCCGACAUGAUAACAAGGUUACUUGGCUGGUCUCCUGGACAGAGAAUAUCCAAGGUUCUAUCAAAUAUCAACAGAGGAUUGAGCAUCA,0.199
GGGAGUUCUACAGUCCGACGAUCGAUGCAGUUAAGGAAGAAAAUCUGAAGCUAAAGUCGGAAAAUCAAGUUCUCGGACAAUAUAUAGAAAACCUCAUGUCUGCUUCUAGUGUUUUUCAAACAACUGAUACAAAAAGCAAAAGGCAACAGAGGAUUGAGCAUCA,0.233
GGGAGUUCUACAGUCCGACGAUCAAACCUGUAGGGUUUGGAGAAGAGUUUGACGAGGAUGAGCUCAUGGCGGAAUUAGAAGAACUAGAACAGGAGGAACUAGACAAGAAUUUGCUGGAAAUCAGUGGACCCGAAACAGUCCCUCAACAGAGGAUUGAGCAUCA,1.86

# Set 3 — technique: RNA Bind-n-Seq; molecule type: RNA; matrix: in vitro; tested at: 365 nM; reference: no-protein control; reading: higher = stronger binding
# Target: RNA binding protein fox-1 homolog 2, RRM domain, GST-SBP tag (RBFOX2, Homo sapiens, UniProt O43251-10, residues 100-194)
# Notes: natural RNA segment, single round, ends assumed
# Residues (chain): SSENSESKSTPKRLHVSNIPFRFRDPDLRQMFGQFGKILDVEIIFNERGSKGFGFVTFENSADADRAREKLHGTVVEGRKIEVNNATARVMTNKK
Strand,RBNS enrichment (R)
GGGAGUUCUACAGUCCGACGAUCGCUGGUAGCCUUUUGGGAAUUGGUUUGGUUUAUUGUAUAUGUACCAUUUUGCUACCAGUUUCAUUGAAUUGAUUUAAAAAUAAAUAAAUAAUAAAAUUAUUUCUGAUGAUUGGAAUUCUCGGGUGCCAA,11.2
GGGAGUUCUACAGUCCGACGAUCCUAAUCUAGAGCUGACCAGUUUGAGCUGAUUCUCUCUUUGAAGAGUCCUUCUUGAUUGCAGUGCAGUACUGGCAUUUCUGAAUGGAUGUAAGUGGAGUAUUUUAGUCUAAUGGAAUUCUCGGGUGCCAA,0.31
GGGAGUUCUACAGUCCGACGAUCGUUGCUAAAUUUUGUAGCACUGUUUACAGUUUUCCUCCAUGUUAUUUAUGAAUUUUAUAUUCCGUGAAUGUAUAUUGUCUUGUAAUGUUGCAUAGUGUUCACUUUUUAUAUGGAAUUCUCGGGUGCCAA,2.38
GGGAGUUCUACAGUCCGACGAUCUAGAAUUAUUUAAUUUUGUGAUUUGUUCUUCCAUAUGACAUUGAGCAAAUAGAUCUGUUUCAAAAUAUGUUCCCGCUAUGUGGAUAACUCUUCUUUUUAAAAAGAAAAUAUGGAAUUCUCGGGUGCCAA,0.409
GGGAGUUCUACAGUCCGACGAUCCAGCCAAGGCUCUGUUUAUGCUUUUGGGGGGCAUAUAUUGGGUUCCAUUCUCACCUAUCCACACAACAUAUCCGUAUAUAUCCCCUCUACUCUUACUUCCCCCAAAUUUAUGGAAUUCUCGGGUGCCAA,1.03
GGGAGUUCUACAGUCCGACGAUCUAUGAACUUGUUUUUCUUAAUCUUUAAGAUGUCAGUAUUCAUGUAAAUAAACAAUAGAUCCAGCUUUUCCCUUUGACGGUGUGACUUUGAUCAAUUUACUUAAUCUGUCUUGGAAUUCUCGGGUGCCAA,0.39
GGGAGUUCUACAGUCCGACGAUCCAAAGUGUAGCUGCUAGAGGGAUGACCUCUCCUUCAACUUGUCCUGAAGCACUUACAUUUAGUUGUUGAAAGCAGUAGUAGCAGACCAAGCUAGCCCCUUAUCCAGCCAAUGGAAUUCUCGGGUGCCAA,0.238
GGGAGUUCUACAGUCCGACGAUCCAAAGGGAGUGUUGAAACUCAAGUCCCGCCCUGGCUCUUUAGAAUGGACCACUGAGAGCCACAGGACCGUUUUGGGGCUGACCUGUCUUAUUACGUAUGUACUUCUAGGUUGGAAUUCUCGGGUGCCAA,0.406
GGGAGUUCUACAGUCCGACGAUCUGUUUUUCAUAGUUUAUAAUCUGAUGGCUAACUAACUUUCAAAACAGCUUUUAACUAAGUUUGUUGUAGGAGAAAUGACUGCGGUAAUUUCCAGUUCUAUAAUGUUUCAUUGGAAUUCUCGGGUGCCAA,0.579
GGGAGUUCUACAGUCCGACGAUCUUCUCUACCCUUUUAAAGGCAAAAGUAUUGGGAUGCAAUACUAUCUUAAUGUCCCUAUCUGUGGUGUGUGUGCACUUGCUGUGACCUUCCCAGUAGUCCCUCCAUGACAGUGGAAUUCUCGGGUGCCAA,0.418
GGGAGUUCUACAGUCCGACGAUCGACCCUAAGAAGAGCAGGCAGCUGUGCUUGUUGAGAUAUGAGGACAGAAAAGGGACACCCUUUUAUGGUGUCAACUUUUGGAUCUGGGUUUCCCCCAGAUGUUGGGUUGCUGGAAUUCUCGGGUGCCAA,0.274
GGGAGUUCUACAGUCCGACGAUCCACAACACACUGUAUGUGCAUACAUGAAACACAAACAGCUUUUUACUGAACAGAAUUAUAGACAUUUGCUGGUGGAAGGGAUAACUAUGUACAUCUAACUAGGACUCAGAUGGAAUUCUCGGGUGCCAA,0.61

# Set 4 — technique: RNAcompete; molecule type: RNA; matrix: in vitro; tested at: 20 nM; notes: 7-mer, probes averaged, single round; reference: mean of 7-mers; reading: higher = stronger binding
# Target: PABPC1L2, full length, GST fusion (mouse, UniProt A0ABA7IW68)
# Target sequence (chain): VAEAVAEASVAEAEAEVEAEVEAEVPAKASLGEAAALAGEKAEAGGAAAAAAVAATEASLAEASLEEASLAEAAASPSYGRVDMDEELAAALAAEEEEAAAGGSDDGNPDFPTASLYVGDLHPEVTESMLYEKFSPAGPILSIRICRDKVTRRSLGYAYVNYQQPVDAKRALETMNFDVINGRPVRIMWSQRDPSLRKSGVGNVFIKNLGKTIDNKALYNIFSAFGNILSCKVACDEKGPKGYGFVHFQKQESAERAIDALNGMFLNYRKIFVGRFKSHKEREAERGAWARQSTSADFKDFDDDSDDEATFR
Strand,7-mer Z-score
UCACAUG,-0.231
GAUUAUG,-0.0391
UCGUGUC,-0.463
UCUUGUC,-0.45
GAAGAUG,-0.119
AUAUUCC,-0.271
CAGCCUG,-0.322
AACUUGA,0.166
AACAUGG,0.771
AUAGACG,-0.0989
UGCUCGU,-0.423
GUUGCUA,-0.128
GAGCCAU,-0.237
AGCCGAG,-0.238
GACUCUU,-0.302
CGAGUGU,-0.177
AAGGCAA,0.407
GCGAUCU,-0.101
CCAACCG,-0.251

# Set 5 — target: CCNB2, cyclin fold, Cln2 fusion (human); technique: yeast growth competition, sequencing; matrix: yeast; notes: weak parent motif; reference: not given; reading: higher = stronger binding
# Starting sequence: LLGL2 docking peptide (human); KSLKKSLRQSFRR
Change,normalised enrichment score
KSLKKSLRASFRR [Q9A],1.13
KSLKKSLRQSARR [F11A],0.496
KSAKKSLRQSFRR [L3A],1.05
KSLKKSLRQSFAR [R12A],0.784
KSLAKSLRQSFRR [K4A],0.583
KSLKKSLAQSFRR [R8A],0.507
KSLKKSARQSFRR [L7A],0.631

# For quick reference, copied from above (set 4):
Strand,7-mer Z-score
AUAGACG,-0.0989
AACAUGG,0.771
UCGUGUC,-0.463
AAGGCAA,0.407
UCUUGUC,-0.45
GUUGCUA,-0.128
GAUUAUG,-0.0391
CGAGUGU,-0.177
AUAUUCC,-0.271
GAAGAUG,-0.119
AACUUGA,0.166
AGCCGAG,-0.238
